Results of several laboratories.
Protocols differ between the studies behind these lines. ± marks the error that the study gave.

Under “subjects with infections”, `deucravacitinib` is recorded as 44.4% (multiple ascending dose; healthy human; oral, 4 mg twice daily).
`sorafenib glucuronide`: liver-to-plasma ratio “increased” (Abcc3(−/−) mouse; oral, 10 mg/kg of sorafenib; baseline: wild type).
`ε-poly-L-lysine` gave a thermodynamic solubility of 327 ± 81.3 mg/mL (Tris-Cl buffer; pH 7.5, room temperature).
`chicoric acid` has an AUC(0-t) of 416 ± 128 ng·h/mL (UPLC; broiler chicken, plasma; oral gavage, 20 mg/kg).
For `maraviroc`, the Cmax was 864 ng/mL (human, Black, CYP3A5 poor metabolizers, plasma; 300 mg twice daily).
With `isoliquiritin apioside` the IC50 was 37.9 ± 5.78 µM (Prothrombin (F2, Homo sapiens, UniProt P00734); enzyme activity, inhibitor, fluorogenic; 20 min, 37 °C, together with: Z-GGR-AMC 50 µM).
`vorinostat glucuronide` gave a Cmax of 1770 nM (patients, plasma; oral, 200 mg vorinostat three times daily, 3 days, together with: idarubicin).
Under “participants with adverse events”, `semaglutide` is recorded as 3.1% (item: drug relationship missing; human, safety analysis set; concentration not given, 32 weeks, run-in).
Under mass recovered, `(+)-catechin gallate` is recorded as “not detected” (transwell, HBSS; basolateral compartment, no cells; 4 h, pH 7.4).

Repeated from above:
Under “participants with adverse events”, `semaglutide` is recorded as 3.1% (item: drug relationship missing; human, safety analysis set; concentration not given, 32 weeks, run-in).
